# Experimental data pooled from the literature.
# A part holds a random share of what one study measured. Positions count from the first letter of the parent shown.
# Sequence of UniProt P51812 (whole entry, looked up): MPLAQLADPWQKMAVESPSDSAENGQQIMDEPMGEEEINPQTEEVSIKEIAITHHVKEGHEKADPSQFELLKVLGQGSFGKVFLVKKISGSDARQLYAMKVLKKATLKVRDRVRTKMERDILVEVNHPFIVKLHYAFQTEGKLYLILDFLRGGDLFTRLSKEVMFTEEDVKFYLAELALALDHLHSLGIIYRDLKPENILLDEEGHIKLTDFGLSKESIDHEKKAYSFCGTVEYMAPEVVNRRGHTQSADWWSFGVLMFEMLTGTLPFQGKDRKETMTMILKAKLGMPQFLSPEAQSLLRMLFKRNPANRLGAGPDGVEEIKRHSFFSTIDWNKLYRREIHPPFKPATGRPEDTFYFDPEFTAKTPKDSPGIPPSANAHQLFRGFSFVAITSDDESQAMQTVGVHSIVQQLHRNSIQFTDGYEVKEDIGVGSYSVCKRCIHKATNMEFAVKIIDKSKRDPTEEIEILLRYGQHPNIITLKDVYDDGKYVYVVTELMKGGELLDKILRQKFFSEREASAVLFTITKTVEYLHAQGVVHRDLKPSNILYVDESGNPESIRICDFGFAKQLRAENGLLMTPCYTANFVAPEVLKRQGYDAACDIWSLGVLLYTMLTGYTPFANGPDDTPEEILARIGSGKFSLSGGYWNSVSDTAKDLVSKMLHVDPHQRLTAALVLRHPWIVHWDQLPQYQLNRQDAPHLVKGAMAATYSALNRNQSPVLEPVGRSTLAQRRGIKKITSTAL

# Series 1
# Target: Interferon regulatory factor 5, full length, phosphomimetic (IRF5, Homo sapiens, UniProt Q13568-2, residues 1-514, K96S/S451D/S453D/S456D/S462D)
# Method: protein-binding microarray
# Form: double-stranded DNA, one strand shown
# Sample: in vitro
# Tested at: 250 nM
# Notes: 60-bp whole probe
# Added: salmon DNA 0.4 mg/ml
# Reference: random background probes
# Direction: higher = stronger binding
# Shared flanks, not repeated: GCCTAGCAC … GTCTTGATTCGCTTGACGCTGCTG
Sequence,log fluorescence [z-score]
TCAGCTTTGCTTCCTGCACTGTGCTAG,0.119
GACGGGCTGGGGACTGGGGACGTGCTA,-0.632
CTAGTTCTGCTTTGCCTTCAGTGCTAG,0.336
TTAGGTATCGGGACTGGATTAGTGCTA,1.85
GACGGACTGGACTTTTGGGACGTGCTA,-0.123
GACGGACTGCTACTGTTGACGTGCTAG,-0.526
TTAGATATCAGTATCGACTAGTGCTAG,4.79
GTCGGACTGGACTATCGGGACGTGCTA,0.692

# Series 2
# Molecule: PhoQ, residues 284 288 289 292 302 303 SVTLVV
# Method: Sort-seq
# Measured: YFP reporter
# Sample: E. coli
# Notes: PhoQ-PhoP variant library
# Added: 10 µM Mg2+
# Reference: high Mg2+ state
# Direction: higher = stronger signaling
target,fold induction
"PhoP, residues 12 14 15 18 19 GMGLL (Escherichia coli, UniProt P23836)",12.2
"PhoP, residues 12 14 15 18 19 QQAYL (Escherichia coli, UniProt P23836)",20.3
"PhoP, residues 12 14 15 18 19 LFHKL (Escherichia coli, UniProt P23836)",4.7

# Series 3
# Target: CREB3L1, bZIP domain (human)
# Method: DHFR protein complementation
# Sample: yeast
# Notes: single substitutions, most at no-binding floor
# Reference: wild-type JUN-FOS pair
# Direction: higher = stronger binding
# Starting sequence: JUN, bZIP domain (human); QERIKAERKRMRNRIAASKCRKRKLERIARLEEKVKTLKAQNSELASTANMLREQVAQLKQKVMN; partner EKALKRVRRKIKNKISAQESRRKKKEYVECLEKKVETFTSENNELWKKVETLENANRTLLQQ
Substitution,binding fitness [natural log]
S47K,-1.49
A46D,-1.41
K34Y,-1.56
E33C,-1.43
L45Q,-1.42
K39E,-1.4
A57R,-1.4
S43A,-1.24

# Further values, each from its own experiment
SMILES,target,assay,conditions,scale,quantity,result
COc1ccc(S(=O)(=O)N(CCO)c2ccccc2CN(C)CC=Cc2ccc(Cl)cc2)cc1,"Ribosomal protein S6 kinase alpha-3 (RPS6KA3, Homo sapiens, UniProt P51812)","enzyme activity, inhibitor",0.5 µM,reference: control,remaining activity,98%

# Repeated from above (series 1):
Sequence,log fluorescence [z-score]
GACGGGCTGGGGACTGGGGACGTGCTA,-0.632
CTAGTTCTGCTTTGCCTTCAGTGCTAG,0.336
TTAGGTATCGGGACTGGATTAGTGCTA,1.85
